# Assay results from different studies.
# “And” joins repeats or separate records; there may be more than shown. ± gives the spread as reported.
Molecule,tested on,test,system,conditions,how to read,measurement,result
semaglutide,,,"Wistar rat, male, diet-induced obese","subcutaneous, increasing doses once daily, 45 days",baseline: vehicle,cumulative food intake reduction,-19.9%
PKRSFIESNV,human MAGI1-2/6 PDZ construct (MBP fusion),surface plasmon resonance,peptide,concentration not given,higher = stronger binding,normalised SPR binding response,10.8 normalised RU
cotadutide,,,"ob/ob mouse, AMLN diet NASH model","dose not given, terminal",,plasma cholesterol,305 ± 32 mg/dL
maraviroc,,"ELISA, item: sRAGE","mouse, HIV-infected, serum","intraperitoneal, 120 mg/kg twice daily, week 3 post infection",,serum level,91 ± 7.34 ng/mL
human alpha-1-acid glycoprotein 1,,co-immunoprecipitation,human RBC membrane,"DMTMM crosslinker, unit not given, together with: Band 3 peptide 1-56 bait",baseline: negative control,co-IP enrichment,0
KPGKGSETVV,human MAGI1-2/6 PDZ construct (MBP fusion),surface plasmon resonance,peptide,concentration not given,higher = stronger binding,normalised SPR binding response,92 normalised RU
hemoglobin alpha,,co-immunoprecipitation,human RBC cytosol,"DMTMM crosslinker, unit not given, together with: Band 3 peptide 1-56 bait",baseline: negative control,co-IP enrichment,3280
calcium,,"ion current, two-electrode voltage clamp",Xenopus oocytes,"1.8 mM, -80 mV, together with: niflumic acid present",,desensitization time constant,7.53 s and 17.6 s and 10.3 s and 14.6 s
Peginesatide,UT7/EPO,"RT-qPCR, item: IER3",,"concentration not given, 90 min, normalized to HPRT1",baseline: vehicle,mRNA level,4.4 fold
human LDL receptor,,co-immunoprecipitation,human RBC cytosol,"DMTMM crosslinker, unit not given, together with: Band 3 peptide 1-56 bait",baseline: negative control,co-IP enrichment,85.1
colistin,Klebsiella pneumoniae,broth microdilution,clinical isolate RKI-No_268/15,,,MIC,32 mg/L
difelikefalin,,,Japanese haemodialysis patients with pruritus,"intravenous, 0.5 µg/kg, 8 weeks",,PGIC much improved,28.8%
somatropin,,,"children with severe GH deficiency, short stature","dose not given, GHSR mutation patients",,height gain in first year of therapy,7 cm
